Experimental data collected from several papers.
Each numbered part is a random draw from the data of one study; scales do not carry over between parts.
Sequence of UniProt Q14653 (whole entry, unmodified, looked up): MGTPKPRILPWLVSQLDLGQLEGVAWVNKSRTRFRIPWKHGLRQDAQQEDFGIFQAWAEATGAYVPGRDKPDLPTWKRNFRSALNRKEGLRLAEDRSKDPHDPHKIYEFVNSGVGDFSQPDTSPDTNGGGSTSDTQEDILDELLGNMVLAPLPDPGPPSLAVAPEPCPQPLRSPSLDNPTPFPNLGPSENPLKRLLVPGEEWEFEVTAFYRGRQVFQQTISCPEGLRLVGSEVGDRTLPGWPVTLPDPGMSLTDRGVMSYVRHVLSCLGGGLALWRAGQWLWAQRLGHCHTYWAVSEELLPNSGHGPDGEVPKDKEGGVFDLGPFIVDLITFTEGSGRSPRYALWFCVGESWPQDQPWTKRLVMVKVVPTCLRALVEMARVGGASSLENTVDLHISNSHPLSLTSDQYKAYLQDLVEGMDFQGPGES

Sample 1 — method: protein binding microarray; form: double-stranded DNA, one strand shown; matrix: in vitro; concentration: not given; reference: not given; reading: higher = stronger binding
Target: Histone acetyltransferase KAT6A, both winged helices, GST fusion (KAT6A, Homo sapiens, UniProt Q92794, residues 1-181)
Setting: 8-mer, flanks averaged, mean of 2 arrays, mostly near background
Target sequence (chain): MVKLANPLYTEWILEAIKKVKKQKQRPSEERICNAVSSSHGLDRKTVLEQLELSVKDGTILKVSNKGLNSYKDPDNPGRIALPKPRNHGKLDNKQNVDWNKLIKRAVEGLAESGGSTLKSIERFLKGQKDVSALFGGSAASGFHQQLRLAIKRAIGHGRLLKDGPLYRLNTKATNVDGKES
Strand | E-score
ACAGGTTA | -0.164
CCGGGTCC | 0.226
AGACGGTG | 0.0202

Sample 2 — method: universal PBM; form: double-stranded DNA, one strand shown; matrix: in vitro; concentration: not given; reading: higher = stronger binding
Target: Sal-like protein 4, full length isoform B (SALL4, Homo sapiens, UniProt Q9UJQ4-2, residues 1-616)
Setting: 8-mer, flanks averaged, mean of replicates
Strand | E-score
ACGCGTTA | -0.0638
AACAATGC | 0.121
CACAGTTA | 0.139

Single results of other studies
IRF5 S451D/S453D/S456D/S462D full length, phosphomimetic: Interferon regulatory factor 5, full length, phosphomimetic (IRF5, Homo sapiens, UniProt Q13568-2, residues 1-514, S451D/S453D/S456D/S462D)
Molecule | target | test | system | conditions | how to read | quantity | result
GCCTAGCACTTAGGTCTCCTACTGCCTTAGTGCTAGGTCTTGATTCGCTTGACGCTGCTG | Interferon regulatory factor 3, full length, phosphomimetic (IRF3, Homo sapiens, UniProt Q14653, residues 1-427, S386D/S396D/S398D/S402D/T404D/S405D) | protein-binding microarray | double-stranded DNA, one strand shown, in vitro | 2540 nM top, 60-bp whole probe, added: salmon DNA 0.4 mg/ml | reference: random background probes, higher = stronger binding | fitted relative affinity | 0.897 z-score
PhoQ, residues 284 288 289 292 302 303 SSCLAV | PhoP, residues 12 14 15 18 19 FWNTL (Escherichia coli, UniProt P23836) | Sort-seq, item: YFP reporter | E. coli | PhoQ-PhoP variant library, added: 10 µM Mg2+ | reference: high Mg2+ state, higher = stronger signaling | fold induction | 2.79
GCCTAGCACTTAGGAATGCTTCTCCTTTAGTGCTAGGTCTTGATTCGCTTGACGCTGCTG | IRF5 S451D/S453D/S456D/S462D full length, phosphomimetic | protein-binding microarray | double-stranded DNA, one strand shown, in vitro | 940 nM top, 60-bp whole probe, added: salmon DNA 0.4 mg/ml | reference: random background probes, higher = stronger binding | fitted relative affinity | -0.0198 z-score
GCCTAGCACGACGGGATCGGTTTCGGGACGTGCTAGGTCTTGATTCGCTTGACGCTGCTG | IRF5 S451D/S453D/S456D/S462D full length, phosphomimetic | protein-binding microarray | double-stranded DNA, one strand shown, in vitro | 940 nM top, 60-bp whole probe, added: salmon DNA 0.4 mg/ml | reference: random background probes, higher = stronger binding | fitted relative affinity | 3.91 z-score

Repeated from above (single results of other studies):
Molecule | target | test | system | conditions | how to read | quantity | result
GCCTAGCACGACGGGATCGGTTTCGGGACGTGCTAGGTCTTGATTCGCTTGACGCTGCTG | IRF5 S451D/S453D/S456D/S462D full length, phosphomimetic | protein-binding microarray | double-stranded DNA, one strand shown, in vitro | 940 nM top, 60-bp whole probe, added: salmon DNA 0.4 mg/ml | reference: random background probes, higher = stronger binding | fitted relative affinity | 3.91 z-score
